Published values collected from several papers.
Several values in a cell are separate wells, animals, samples, runs or records. Numbers after ± are the reported error.

`Cc1c(Cl)c(C)[n+]([O-])c(Cl)c1-c1noc(-c2cc(O)c(O)c([N+](=O)[O-])c2)n1` — result for “adverse event incidence”: 6.7% (item: Moderate severity; healthy Caucasian subjects; oral, 50 mg, 10 days).
With `Cc1ccc2nc(-c3ccccc3)cn2c1` the CC50 was greater than 63.1 µM (peritoneal macrophages, Swiss mice; 5 days, 5% fetal calf serum).
For `COc1cc2nccc(Oc3ccc(NC(=O)c4cc5c(n(-c6ccccc6)c4=O)CCCC5=O)nc3)c2cc1OC`, “grade ≥3 Syncope patients” read 0% (relapsed or refractory AML; oral, 6 mg once daily).
Under “participants with TEAE”, `Cc1ccc(Sc2ccccc2N2CCNCC2)c(C)c1` is recorded as 0% (item: ureteric calculus; healthy adult women; oral, 5 mg daily, 12 days).
For `CC(C)OC(=O)[C@@H](C)N[P@@](=O)(OC[C@H]1O[C@@H](n2ccc(=O)[nH]c2=O)[C@](C)(Cl)[C@@H]1O)Oc1ccccc1`, “lag time increase” read 65% (human; oral; baseline: capsule over tablet).
`CCn1c(=O)c(-c2cc(NC(=O)Nc3ccccc3)c(F)cc2Br)cc2cnc(NC)cc21`: “participants with drug-related TEAE” 50% (item: lipase increased; healthy human, matched to severe hepatic impairment; oral, 50 mg single dose).
With `CCc1cc(C(=O)NC)c2nccc(N3CCc4c(cc(Cn5ccnc5)cc4-c4cn(C)nc4C(F)(F)F)C3=O)c2c1` the heart weight was 0.98 ± 0.044 g (Sprague Dawley rat; oral, 100 mg/kg once daily, 7 days).
`CCS(=N)c1ccc(C(F)(F)F)cc1` (centres unmarked) gave a metabolic stability of less than 23% (human liver microsomes; baseline: hepatic blood flow).
The hydrolysis rate of `CCCCCN(C)CCC(O)(P(=O)(O)O)P(=O)(O)OP(=O)(O)OC[C@H]1O[C@@H](n2ccc(N)nc2=O)C(F)(F)[C@@H]1O` (some centres unmarked) is reported as 0.025 h⁻¹ (aqueous buffer; concentration not given, pH 2.7, 22 °C, with: 2.7 mM TFA).
With `Cc1cccc(CNC(=O)c2cn(CCNC(=O)c3ccccc3Sc3c([N+](=O)[O-])ncn3C)c3cc4c(cc3c2=O)OC(F)(F)O4)n1` the AUC(0-t) was 164 ± 57.7 ng·h/mL (Sprague-Dawley rat, male, plasma; intramuscular, 3 mg/kg of parent compound).
The tmax of `Nc1ncc(-c2ccncc2)nc1Nc1ccc2[nH]ccc2c1` is reported as 30 min (C57BL mice, plasma; oral, 30 mg/kg).
For `COc1nnc2ccc(N3CCC(c4ccc(OCCN5CCN(C)C(=O)[C@H]5C)cc4)CC3)nn12`, the AUClast was 0.0837 µM·h (human, plasma; oral, 2 mg once daily, single dose, monotherapy).
Under “adverse event incidence”, `CC(=O)O[C@H]1C(=O)[C@@]2(C)[C@H]([C@H](OC(=O)c3ccccc3)[C@]3(O)C[C@H](OC(=O)[C@H](O)[C@@H](NC(=O)c4ccccc4)c4ccccc4)C(C)=C1C3(C)C)[C@]1(OC(C)=O)CO[C@@H]1C[C@@H]2O` is recorded as 30% (item: aspartate aminotransferase increased; patients with advanced solid tumours; intravenous, dose not given, grade 1 and 2, possibly related to drug).
`CCCCCCCOc1ccc(CCC(N)(CO)CO)cc1C(F)(F)F.Cl` has a renal clearance of 0.0112 mL/min (healthy men; oral, 0.25 mg, day 1).
Under “cumulative amount excreted”, `NC[C@@]1(CC(=O)O)[C@@H]2CC[C@H]3C[C@@H]2[C@@H]1C3` is recorded as 14.5 ± 2.71 mg (human, mild renal impairment, urine; oral, 20 mg single dose).
For `Cc1cc(C)c(CNC(=O)c2cc(Cl)c3c(c2C)O[C@@](C)([C@H]2CC[C@H](N(C)C)CC2)O3)c(=O)[nH]1`, the cumulative excretion was 79.8% (item: total radioactivity; human, fasted, feces; oral, 200 mg [14C] single dose, 0 to 360 h; baseline: dose).
`Cc1nc(-c2ccc(OCC(C)C)c(C#N)c2)sc1C(=O)O` has a body weight of 37.9 g and 31.8 g and 33.9 g and 41.8 g and 37.7 g and 31.4 g (KM mouse, chronic hyperuricaemia model; dose not given, day 19).
For `C[C@@H]1OC(=O)[C@H](Cc2ccccc2)[C@H]1O`, the DT50 was 0.35 days (aerobic dark soil incubation; clay soil; 20 °C, modelling endpoint).
Under “drug exposure ratio”, `NC(=S)NN=Cc1ncccc1N` is recorded as 2.5 fold (LC-MS/MS; human, plasma; oral, dose not given, 1 weeks, estimated over one week; baseline: intravenous regimen).
`C[C@@H](N)C1CCN(S(=O)(=O)c2cccc3cnccc23)CC1` — result for “discontinuations due to TEAEs”: 0% (healthy volunteers; 250 mg, fasted).
The headache incidence of `CNCc1ccc(-c2[nH]c3cc(F)cc4c3c2CCNC4=O)cc1` is reported as 11.1% (human patients; oral, 480 mg twice daily, all grades).
`Cc1cc(-c2nnc(N)nc2-c2ccc(F)cc2)cc(Cl)n1` — result for “incidence of AE, immune-mediated, treatment-related”: 0% (item: myositis, grade ≥ 3; post-IO NSCLC patients; oral, 100 mg once daily).
`CC(C)(C(=O)N1CCOc2c(C#N)cncc2C1)C(F)F` — result for “subjects with adverse event”: 0% (item: Presyncope; human; oral, 10 mg once daily, 14 days, multiple ascending dose).
`Cc1ccc([C@@H]2O[C@H](CO)[C@@H](O)[C@H](O)[C@H]2O)cc1Cc1ccc(-c2ccc(F)cc2)s1` — result for “urinary phosphate excretion change”: -8.52 mg (item: inorganic phosphorus; Japanese type 2 diabetes patients; 100 mg, day 5, 24 h urine collection; baseline: baseline).
Under “diastolic blood pressure”, `COc1ccc2c(c1)CN(C(=O)CCN1CCC(Cc3ccccc3)CC1)CC[S@@+]2[O-]` is recorded as 91 ± 20 mmHg (telemetry; conscious dog; intravenous, 8 mg/kg, 1 h).
The ECG observations of `CCOc1c([C@H](C)n2nc(C)c3c(N)ncnc32)cc(Cl)c(F)c1[C@@H]1CNC(=O)C1` is reported as 100% (item: QTcF ≤450 ms; previously treated B-cell malignancy; oral, 10 mg once daily, overall population).
`CCN1/C(=C/C(C)=O)Sc2ccc(F)cc21`: “PR interval change” 104 ± 2.5% (cynomolgus monkey; oral, 100 mg/kg, 6 h post-dose; baseline: pre-dose).
`OC[C@H]1O[C@@H](c2ccc(Cl)c(Cc3ccc(O[C@H]4CCOC4)cc3)c2)[C@H](O)[C@@H](O)[C@@H]1O` — result for “change in uric acid”: -0.42 µmol/L (Japanese type 1 diabetes patients, blood; 10 mg, day 28; baseline: baseline).
For `CN1C[C@H](COc2nccc3c(NCc4ccco4)cc(Cl)nc23)OC1=O`, “left ventricular peak systolic pressure” read 100 mmHg (rabbit NZW female, isolated Langendorff heart; 10 µM, 15 min).
`CO[C@@H]1[C@H](OC(=O)N2CC(CCN3CCOCC3)C2)CC[C@]2(CO2)[C@H]1[C@@]1(C)O[C@@H]1CC=C(C)C` has a heart rate of -0.8 ± 5.3 beats/min (humans; subcutaneous, 0.2 mg twice weekly for 4 weeks, day 28; baseline: baseline).
`COc1ccc2[nH]c([S+]([O-])Cc3ncc(C)c(OC)c3C)nc2c1` (centres unmarked) gave an AUC(0-inf) of 3880 ± 1400 ng·h/mL (healthy Chinese volunteers, plasma; oral, 20 mg, enteric-coated tablets, CYP2C19 poor metabolizers).
With `Cc1cc([C@H]2C[C@H]3[C@@H](CF)SC(N)=N[C@@]3(c3ccc(F)cc3F)CO2)on1` the brain concentration was 37 nM (male 129/SVE wild-type mouse, brain; subcutaneous, 30 mg/kg, 7 h).
For `O=C(Nc1nc2cccc(-c3ccc(CN4CCS(=O)(=O)CC4)cc3)n2n1)C1CC1`, “slower absorption mixture fraction” read 0.823 (population PK model; human; oral, bootstrap median).
For `C=CC(=O)Nc1cc(Nc2nccc(-c3cn(C4CC4)c4ccccc34)n2)c(OC)cc1N(C)CCN(C)C`, the total protein was 49.2 ± 5.08 g/L (BALB/c nude mice, LU0387 xenograft, serum; oral, 40 mg/kg).
With `C=CC(=O)Nc1cc(Nc2nccc(-c3cn(C)c4ccccc34)n2)c(OC)cc1N(C)CCN(C)C` the percentage recovery was 40% (storage stability; human dried blood spot samples; 30 d, -80 °C, LLOQ level; baseline: nominal concentration).
`CC(=O)N(C)[C@H]1CCN(C(=O)c2cnc3c(c2)C[C@](C)(c2ccc(F)cc2)N3)C1` — result for “adverse event duration”: 206 days (item: lens opacity; human; oral, 15 mg once daily).
`Cn1cc(Nc2nccc(-c3ccc4c(c3)CN(C3COC3)CC[C@H]4NC(=O)c3cn(C(C)(C)C)nn3)n2)cn1` — result for “plasmablast count change”: 4.61% (human, whole blood; 150 mg twice daily, day 7; baseline: pre-dose baseline).
For `COc1cc(C(=O)N2CCC3(CC2)CC(=O)c2c(cnn2C(C)C)C3)cc(-c2ccc(C(=O)O)cc2)n1`, “placebo-adjusted change from baseline” read 1.5% (item: direct LDL cholesterol; human, fasting serum; 10 mg every 12 h, day 13, adjusted geometric mean; baseline: baseline and placebo).
For `NC1(C(=O)N[C@@H](CCO)c2ccc(Cl)cc2)CCN(c2nc[nH]c3nccc2-3)CC1`, “incidence of Dysuria” read 0% (metastatic CRPC patients; 400 mg b.i.d., grade 3 to 4, treatment-related, with: enzalutamide 160 mg daily).
For `Cc1cc(NC2CCN(C(=O)OC3CCN(C(=O)/C=C/CN(C)C)C3)CC2)n2ncc(C(C)C)c2n1` (centres unmarked), “patients with adverse event” read 6% (Phase I dose escalation CTCAE v4.0, item: Hypotension; patients with advanced solid tumours; dose not given, all dose schedules any grade).
`Nc1ncnc2c1c(Oc1cc(C(F)(F)F)ccn1)nn2[C@@H]1CCCC[C@H]1O`: metabolic stability “stable” (minipig, liver microsomes).
`Cc1nc(-c2cnc(NC(C)C)n(C)c2=O)ccc1Oc1ccnc(-c2cnn(C)c2)c1` gave an apparent clearance of 2 mL/min/kg (DBA/1 mouse, female, plasma; oral, 15 mg/kg, single dose).
With `CO[C@H]1CC[C@H](N2C(=O)CNc3ncc(-c4ccc(C(C)(C)O)nc4)nc32)CC1` the renal clearance was 0.657 mL/min (patients, urine; oral, 60 mg, day -1, geometric mean).
`C=CCN1CC(=O)N2[C@@H](Cc3ccc(O)cc3F)C(=O)N(Cc3cccc(N4CC(N5CCN(CC)CC5)C4)n3)C[C@@H]2N1C(=O)NCc1ccccc1`: “treatment-related AST increased” 0% (advanced solid tumour patients; oral, 20 mg twice daily, any grade, dose-escalation).
`COc1ccnc(C(=O)N[C@H]2COC(=O)[C@H](Cc3ccccc3)[C@@H](O)[C@H](C)OC2=O)c1O` gave a DT50 of 18.9 days (aerobic dark soil incubation; sandy loam soil; 20 °C, persistence endpoint).
`C[C@H]1CN(C(=O)CC#N)[C@]12CCN(c1ncnc3[nH]ccc13)C2`: “participants with serious TEAEs” 0% (human; oral, 12 mg single dose).
The AUC(0-t) of `CSc1ccccc1C(=O)NCCn1cc(C(=O)NCc2cccc(C)n2)c(=O)c2cc3c(cc21)OC(F)(F)O3` is reported as 1110 ± 44.9 ng·h/mL (Sprague-Dawley rat, male, plasma; intravenous, 20 mg/kg of parent drug).
Under “heart rate increased”, `CCCn1cc(C)c2c(=O)[nH]c(-c3cc(S(=O)(=O)N4CCN(CC)CC4)ccc3OCC)nc21` is recorded as 5.6% (human; concentration not given, treatment-emergent adverse event).
`OC[C@H]1O[C@@H](c2ccc(F)c(Cc3cc4ccccc4s3)c2)[C@H](O)[C@@H](O)[C@@H]1O`: “hypoglycaemia-related adverse event” 6% (Japanese patients, type 1 diabetes; oral, 100 mg/day, onset day 3; baseline: patients).
`O=C(Nc1cnccc1Cl)N1CCN(Cc2ccc3c(c2)OC(F)(F)O3)CC1` — result for “adverse event incidence”: 0% (item: Ecchymosis; human healthy young men; 25 mg, multiple dose).
`N#Cc1ccc2c(c1)[C@H]1CCCN(C(=O)c3ccc4[nH]cnc4c3)[C@H]1C2`: “total testosterone level” 1.1 nmol/L (human females; 240 mg, day 15).
For `COc1ccc(/C=N/NC(=O)Cn2c(-c3ccc(S(C)(=O)=O)cc3)nc3cc(C)ccc32)cc1`, the ulcer number was 33.3% (rat, stomach; concentration not given, 4 h; baseline: indomethacin).
For `O=C(Nc1nc2cccc(-c3ccc(CN4CCS(=O)(=O)CC4)cc3)n2n1)C1CC1`, “treatment-emergent adverse events” read 25% (item: headache; human rheumatoid arthritis patients; oral, 200 mg once daily, 4 weeks, regardless of relatedness).
For `O=C(O)CCC(=O)O.[2H]C([2H])([2H])Oc1cc(C)c2[nH]ccc2c1CN1CC[C@@H](C2CC2)C[C@H]1c1ccc(C(=O)O)cc1`, the TEAE proteinuria was 8.3% (healthy Chinese subjects; 200 mg, single ascending dose).
For `C[C@H]1Oc2cc(cnc2N)-c2c(nn(C)c2C#N)CN(C)C(=O)c2ccc(F)cc21`, the AUClast was 4870 ng·h/mL (human patients, plasma; oral, dose not given, cycle 2 day 1, geometric mean, with: avelumab).
`Nc1ccn([C@@H]2O[C@H](CO)[C@@H](O)C2(F)F)c(=O)n1` has a Vz/F of 3.33 ± 0.072 (mg/kg)/(µg/mL) (Sprague-Dawley rat, male, plasma; intraperitoneal, 5 mg/kg).

For quick reference, copied from above:
Under “heart rate increased”, `CCCn1cc(C)c2c(=O)[nH]c(-c3cc(S(=O)(=O)N4CCN(CC)CC4)ccc3OCC)nc21` is recorded as 5.6% (human; concentration not given, treatment-emergent adverse event).
`C=CCN1CC(=O)N2[C@@H](Cc3ccc(O)cc3F)C(=O)N(Cc3cccc(N4CC(N5CCN(CC)CC5)C4)n3)C[C@@H]2N1C(=O)NCc1ccccc1`: “treatment-related AST increased” 0% (advanced solid tumour patients; oral, 20 mg twice daily, any grade, dose-escalation).
`CCN1/C(=C/C(C)=O)Sc2ccc(F)cc21`: “PR interval change” 104 ± 2.5% (cynomolgus monkey; oral, 100 mg/kg, 6 h post-dose; baseline: pre-dose).
